Published values gathered from unrelated publications.
Numbered parts are unrelated; each lists some results of a single study.

Series 1 — method: protein binding microarray; form: double-stranded DNA, one strand shown; matrix: in vitro; concentration: not given; reference: not given; direction: higher = stronger binding
Target: Histone acetyltransferase KAT6A, winged helix 1, GST fusion (KAT6A, Homo sapiens, UniProt Q92794, residues 1-85)
Notes: 8-mer, flanks averaged, mean of 2 arrays, mostly near background
Target sequence (chain): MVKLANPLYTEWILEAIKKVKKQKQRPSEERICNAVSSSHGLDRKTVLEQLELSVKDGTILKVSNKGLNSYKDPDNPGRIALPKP
For `ATATAGGA`, the E-score was -0.164.
`AACCCGGC` has an E-score of 0.299.
`ATAAGGCA` gave an E-score of -0.22.
`AGAAAAAC` has an E-score of -0.0159.
`ACCCTTGG` gave an E-score of -0.192.
The E-score of `ACGTGAAT` is reported as -0.0295.

Series 2 — method: protein-binding microarray; form: double-stranded DNA, one strand shown; matrix: in vitro; concentration: 940 nM top; notes: 60-bp whole probe; added: salmon DNA 0.4 mg/ml; reference: random background probes; direction: higher = stronger binding; shared flanks, not repeated: GCCTAGCAC … GTCTTGATTCGCTTGACGCTGCTG
Target: Interferon regulatory factor 5, full length, phosphomimetic (IRF5, Homo sapiens, UniProt Q13568-2, residues 1-514, S451D/S453D/S456D/S462D)
`CCACTTTCACTTCTCCCTTTGTGCTAG` — result for “fitted relative affinity”: 6.16 z-score.
`TCATTTATGGTTTTTTTACTGTGCTAG`: “fitted relative affinity” 0.719 z-score.
`AACCTTATTAAGATTGTGCAAGTGCTA`: “fitted relative affinity” -0.495 z-score.
Under “fitted relative affinity”, `GACGGCCTGGGGTATCGGGACGTGCTA` is recorded as 0.195 z-score.
`TCATTTTCATTTTCTGAAACTGTGCTA`: “fitted relative affinity” 1.56 z-score.

Series 3 — method: protein-binding microarray; form: double-stranded DNA, one strand shown; matrix: in vitro; concentration: 0.8 µM; notes: whole 60-bp probe, no competitor; direction: higher = stronger binding
Target: Centromere-binding protein 1, full length, N-terminal tag (CBF1, Saccharomyces cerevisiae, UniProt P17106, residues 1-351)
UniProt P17106, sequence (whole entry, looked up): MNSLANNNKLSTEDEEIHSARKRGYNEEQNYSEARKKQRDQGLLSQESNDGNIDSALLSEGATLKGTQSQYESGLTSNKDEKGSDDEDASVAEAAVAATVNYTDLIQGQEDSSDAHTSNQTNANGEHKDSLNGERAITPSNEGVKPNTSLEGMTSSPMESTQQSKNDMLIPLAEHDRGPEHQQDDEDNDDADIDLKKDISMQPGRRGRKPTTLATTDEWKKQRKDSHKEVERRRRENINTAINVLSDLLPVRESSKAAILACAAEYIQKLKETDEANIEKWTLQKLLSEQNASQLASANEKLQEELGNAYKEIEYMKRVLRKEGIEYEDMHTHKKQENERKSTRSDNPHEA
The fluorescence intensity of `GAATTGGCCTTCTTTCGTGCGCTTTCCTAAAGGTAGGTCTTGATTCGCTTGACGCTGCTG` is reported as 495 a.u.
`GAAAAGAAAATTCAGCATGTGCGAAGGAAGGTATAGGTCTTGATTCGCTTGACGCTGCTG` gave a fluorescence intensity of 707 a.u.
`GAAACAACCTTGGACTTCGTGGTATTTTGATCCTAGGTCTTGATTCGCTTGACGCTGCTG` gave a fluorescence intensity of 520 a.u.
With `CTAATAGATTTTTAGTACGTGCCTTTTATTTTATTCGTCTTGATTCGCTTGACGCTGCTG` the fluorescence intensity was 548 a.u.

Further values, each from its own experiment
For `PhoQ, residues 284 288 289 292 302 303 AMDMFI`, the fold induction was 2.22 (PhoP, residues 12 14 15 18 19 HLGGL (Escherichia coli, UniProt P23836); Sort-seq, item: YFP reporter; E. coli; PhoQ-PhoP variant library, added: 10 µM Mg2+; reference: high Mg2+ state, higher = stronger signaling).

Excerpt of the above (series 1):
`ACCCTTGG` gave an E-score of -0.192.
